Measurements gathered from unrelated publications.
Lines come from different studies, so protocols differ. ± marks the error that the study gave.

| SMILES | assay | test system | conditions | scale | endpoint | result |
| --- | --- | --- | --- | --- | --- | --- |
| Clc1cc(Cl)cc([C@@H]2COC[C@H](C3CCCC3)N2)c1 | shake-flask, LC-HRMS | aqueous buffer | 16 h, pH 6.8 |  | solubility | < 4 µM |
| COc1ccc(C(=O)CSc2nnc(-c3ccc(OC)c(OC)c3)n2-c2ccccc2)cc1 |  | aqueous buffer | pH 7.4 |  | solubility | < 4.95 µg/mL |
| COc1ccc([C@@H](O)c2cc(-c3ncnc4cc(N5CCOCC5)ccc34)c(F)cc2Cl)nn1 |  | locally advanced rectal cancer patients | 100 mg, together with: capecitabine and radiotherapy |  | lymphocyte count decrease TEAE | 33% |
| Cc1cccc(NS(=O)(=O)c2cc(C(=O)Nc3ccccc3C(=O)N3CCOCC3)ccc2Cl)c1 |  | aqueous buffer | pH 7.4 |  | solubility | < 3.67 µg/mL |
| CNCCOC12CC3(C)CC(C)(CC(Cn4ncc(-c5ccc(N6CCc7cccc(C(=O)Nc8nc9ccccc9s8)c7C6)nc5C(=O)O)c4C)(C3)C1)C2 |  | beagle dog, male, anaesthetised | intravenous bolus, 0.03 mg/kg, 30 min | reference: baseline | QRS duration change | 2 ms |
| O=c1[nH]c(=O)n([C@@H]2O[C@H](CO)[C@@H](O)[C@@H]2F)cc1CCCCC[18F] |  | nude mice, RG2 tumour, liver | intravenous, dose not given, 2 h |  | biodistribution | 0.27 ± 0.05 %ID/g |
| CCOC(=O)N1C[C@@H](c2ccc(Cl)cc2)N[C@@H](c2cccc(Br)c2)C1 | shake-flask, LC-HRMS | aqueous buffer | 16 h, pH 6.8 |  | solubility | < 4 µM |
| O=C(N[C@H](Cc1c[nH]c2ccccc12)C(=O)Nc1ccncc1)c1ccc(N2CCN(c3ccc(F)c(F)c3)CC2)cc1F |  | Swiss Webster mouse, female, intestine | oral, 50 mg/kg, 2 h, 20% HPβCD vehicle |  | concentration | 185 µM |
| C=CC(=O)Nc1cc(Nc2nccc(-c3cn(C)c4ccccc34)n2)c(OC)cc1N(C)CCN(C)C | storage stability | human plasma | 30 d, -80 °C, MQC level |  | recovery | 99.8% |
| COc1ccc2c(c1)CN(C(=O)CCN1CCC(Cc3ccccc3)CC1)CC[S@@+]2[O-] | telemetry | conscious male beagle dogs | intravenous, 4 mg/kg, 2 h |  | QRS duration | 34 ± 10 ms |
| CCN1CCN(Cc2ccc(NC(=O)c3ccc(C)c(NC(=O)c4cncc(-c5cccs5)c4)c3)cc2C(F)(F)F)CC1 |  | C57BL/6 mice, epithelial lining fluid | intraperitoneal, 15 mg/kg |  | apparent volume of distribution | 7.8 L/kg |
| C=CCN1CC(=O)N2[C@@H](Cc3ccc(O)cc3F)C(=O)N(Cc3cccc(N4CC(N5CCN(CC)CC5)C4)n3)C[C@@H]2N1C(=O)NCc1ccccc1 |  | advanced solid tumour patients | oral, 15 mg twice daily, grade ≥3, dose-escalation |  | treatment-related decreased appetite | 0% |
| CCOC(=O)N1C[C@@H](c2ccc(O)cc2)N[C@@H](C2CCC2)C1 | shake-flask, LC-HRMS | aqueous buffer | 16 h, pH 6.8 |  | solubility | > 750 µM |
| COc1cc2nccc(Oc3ccc(NC(=O)c4cc5c(n(-c6ccccc6)c4=O)CCCC5=O)nc3)c2cc1OC |  | patients with relapsed/refractory AML | oral, 3 mg once daily |  | drug-related TEAEs leading to discontinuation | 0% |
| C[C@@]1(C2CCOCC2)COC[C@@H](c2ccc(F)c(C#N)c2)N1 | shake-flask, LC-HRMS | aqueous buffer | 16 h, pH 6.8 |  | solubility | > 750 µM |
| CCc1cc(C(=O)NC)c2nccc(N3CCc4c(cc(Cn5ccnc5)cc4-c4cn(C)nc4C(F)(F)F)C3=O)c2c1 |  | Sprague Dawley rats | oral, 100 mg/kg twice daily, 7 days |  | serum GGT activity | 0.8 ± 0.5 U/L |
| O=c1[nH]c(=O)n([C@@H]2O[C@H](CO)[C@@H](O)[C@@H]2F)cc1CCC[18F] |  | nude mice, RG2 tumour, brain | intravenous, dose not given, 2 h |  | biodistribution | 0.02 ± 0.01 %ID/g |
| CNC(=O)c1ccc(-c2cnc3ncc(Cc4ccc5ncccc5c4)n3n2)cc1F |  | human moderate hepatic impairment | oral, 200 mg single dose, covariate-adjusted geometric mean |  | AUC(0-t) | 6180 ng·h/mL |
| O=C(O)CCC(=O)O.[2H]C([2H])([2H])Oc1cc(C)c2[nH]ccc2c1CN1CC[C@@H](C2CC2)C[C@H]1c1ccc(C(=O)O)cc1 | multiple ascending dose | healthy Chinese subjects | 50 mg twice daily |  | subjects with elevated LDL TEAE | 0% |
| O=C(Nc1nc2cccc(-c3ccc(CN4CCS(=O)(=O)CC4)cc3)n2n1)C1CC1 | measured: lipase increased | human rheumatoid arthritis patients | oral, 200 mg once daily, 4 weeks, regardless of relatedness |  | treatment-emergent adverse events | 0% |
| CCc1cc2c(cc1N1CCC(N3CCOCC3)CC1)C(C)(C)c1[nH]c3cc(C#N)ccc3c1C2=O |  | ALK inhibitor-naive patients, body weight 60-90 kg | oral, 600 mg twice daily, week 6 |  | average plasma concentration | 1300 nM |

| SMILES | assay | test system | conditions | scale | endpoint | result |
| --- | --- | --- | --- | --- | --- | --- |
| CCC(C)n1ncn(-c2ccc(N3CCN(c4ccc(OCC5COC(Cn6cncn6)(c6ccc(Cl)cc6Cl)O5)cc4)CC3)cc2)c1=O (stereo not drawn) |  | healthy human volunteers | oral, 200 mg, event Investigations, continued dosing |  | adverse events | 20% |
| CCCOc1ccc(-c2ccc(C#N)cc2)cc1 |  | Sprague-Dawley rat, female, placenta | 5000 ng/mL in perfusate, 50 (unit not given), high dose, mixture of 21 LCMs |  | placental accumulation | 590 ± 640 ng/g |
| C[Si](C)(C)O[Si](C)(C)C |  |  | 7 to 48 µg/L, 20.0 °C |  | log KOA | 2.74 |
| Cc1cc(NC2CCN(C(=O)OC3CCN(C(=O)/C=C/CN(C)C)C3)CC2)n2ncc(C(C)C)c2n1 (stereo not drawn) | Phase I dose escalation CTCAE v4.0, measured: decreased appetite | patients with advanced solid tumours | dose not given, TIW dosing any grade |  | patients with adverse event | 18% |
| Cc1c([C@H]2COC[C@@H](c3cc(Cl)cc(Cl)c3)N2)cnn1-c1ccccc1 | shake-flask, LC-HRMS | aqueous buffer | 16 h, pH 6.8 |  | solubility | < 4 µM |
| Cc1cccc(CNC(=O)c2cn(CCNC(=O)c3ccccc3Sc3c([N+](=O)[O-])ncn3C)c3cc4c(cc3c2=O)OC(F)(F)O4)n1 |  | Sprague-Dawley rat, male, plasma | intravenous, 5 mg/kg of parent drug |  | MRT(0-inf) | 34.2 ± 15.6 min |
| CN(CCCN1CCN(C(=O)CN2CCN(CC(=O)[O-])CCN(CC(=O)[O-])CCN(CC(=O)[O-])CC2)CC1)c1ccc2nccc(C(=O)NCC(=O)N3CC(F)(F)C[C@H]3C#N)c2c1.[68Ga+3] |  | mice, HT-1080.hFAP and HT-1080 wild-type xenografts, liver | iv, 500 pmol, 4 h post injection |  | uptake | 0.3 %IA/g |
| CCN1/C(=C/C(C)=O)Sc2ccc(F)cc21 |  | cynomolgus monkey | oral, 30 mg/kg, 2 h post-dose |  | systolic blood pressure | 110 ± 6 mmHg |
| CC(C)(C(=O)N1CCOc2c(C#N)cncc2C1)C(F)F | measured: eye disorders | healthy humans, both sexes | oral, 40 mg single dose |  | subjects with TEAE | 0% |
| CCCCC1=NC2(CCCC2)C(=O)N1Cc1ccc(-c2ccccc2S(=O)(=O)Nc2noc(C)c2C)c(COCC)c1 |  | healthy adult volunteers, plasma | oral, 400 mg, single dose, fed, crushed tablet |  | Cmax | 8080 ng/mL |
| Cc1ccc([C@@H]2O[C@H](CO)[C@@H](O)[C@H](O)[C@H]2O)cc1Cc1ccc(-c2ccc(F)cc2)s1 |  | Japanese type 2 diabetes patients | 200 mg, day 16, 24 h urine collection | reference: baseline | urinary chloride excretion change | 8.81 mEq |
| CNC(=O)c1ccc(-c2cnc3ncc(Cc4ccc5ncccc5c4)n3n2)cc1F | measured: Fatigue | other cancer patients | oral, 600 mg twice daily, expansion cohort, grade 3-4 |  | patients with adverse event | 6% |
| Cc1cc(C)c(CNC(=O)c2cc(Cl)c3c(c2C)O[C@@](C)([C@H]2CC[C@H](N(C)C)CC2)O3)c(=O)[nH]1 |  | human male, feces | oral, 200 mg | reference: dose | excretion as parent | 64.9% |
| [18F]c1ccc(-c2ccc3c(c2)[nH]c2ccncc23)cn1 | microPET/CT imaging | APP/PS1 mouse, AD model, brain | intravenous, 20 min |  | SUV | 0.611 ± 0.129 |
| O=C(O)c1cccc(C(=O)O)c1 |  | betaine/glycerol DES-water | DES mass fraction 0.90 |  | apparent dissolution enthalpy | 3.87 kcal/mol |
| N#Cc1ccc2c(c1)[C@H]1CCCN(C(=O)c3ccc4[nH]cnc4c3)[C@H]1C2 |  | human, female | 160 mg, end of trial |  | DHEA-S level | 4.5 µmol/L |
| CCOC(=O)N1C[C@@H]([C@H](C)CC)N[C@@H](C2CCC2)C1 | shake-flask, LC-HRMS | aqueous buffer | 16 h, pH 6.8 |  | solubility | > 750 µM |
| NC1(C(=O)N[C@@H](CCO)c2ccc(Cl)cc2)CCN(c2nc[nH]c3nccc2-3)CC1 |  | metastatic CRPC patients | 480 mg b.i.d., any grade, treatment-related, together with: enzalutamide 160 mg daily |  | incidence of decreased appetite | 60% |
| NC/C(=C\F)COc1cccc(Cn2c(=S)[nH]c(=O)c3[nH]cnc32)c1 |  | C57BL/6J mice, plasma | oral, 15 mg/kg single, 1 h |  | concentration | 293 ng/mL |
| Cc1coc([C@H]2C[C@H]3[C@@H](CF)SC(N)=N[C@@]3(c3ccc(F)cc3F)CO2)n1 |  | male 129/SVE mouse, CSF | subcutaneous, 80 mg/kg, 7 h |  | CSF concentration | 15 nM |
| CCOc1c([C@H](C)n2nc(C)c3c(N)ncnc32)cc(Cl)c(F)c1[C@@H]1CNC(=O)C1 |  | human patients, plasma | oral, 15 mg once daily, cycle 1 day 15, monotherapy |  | Cmin | 0.156 ± 0.0998 µM |
